# Results of several laboratories.
# Parts stem from different laboratories: compare values within a part only. Values joined by “and” are separate records of one study, mostly repeats; a detail may differ.
# UniProt Q5XXA6, sequence (whole entry, unmodified, looked up): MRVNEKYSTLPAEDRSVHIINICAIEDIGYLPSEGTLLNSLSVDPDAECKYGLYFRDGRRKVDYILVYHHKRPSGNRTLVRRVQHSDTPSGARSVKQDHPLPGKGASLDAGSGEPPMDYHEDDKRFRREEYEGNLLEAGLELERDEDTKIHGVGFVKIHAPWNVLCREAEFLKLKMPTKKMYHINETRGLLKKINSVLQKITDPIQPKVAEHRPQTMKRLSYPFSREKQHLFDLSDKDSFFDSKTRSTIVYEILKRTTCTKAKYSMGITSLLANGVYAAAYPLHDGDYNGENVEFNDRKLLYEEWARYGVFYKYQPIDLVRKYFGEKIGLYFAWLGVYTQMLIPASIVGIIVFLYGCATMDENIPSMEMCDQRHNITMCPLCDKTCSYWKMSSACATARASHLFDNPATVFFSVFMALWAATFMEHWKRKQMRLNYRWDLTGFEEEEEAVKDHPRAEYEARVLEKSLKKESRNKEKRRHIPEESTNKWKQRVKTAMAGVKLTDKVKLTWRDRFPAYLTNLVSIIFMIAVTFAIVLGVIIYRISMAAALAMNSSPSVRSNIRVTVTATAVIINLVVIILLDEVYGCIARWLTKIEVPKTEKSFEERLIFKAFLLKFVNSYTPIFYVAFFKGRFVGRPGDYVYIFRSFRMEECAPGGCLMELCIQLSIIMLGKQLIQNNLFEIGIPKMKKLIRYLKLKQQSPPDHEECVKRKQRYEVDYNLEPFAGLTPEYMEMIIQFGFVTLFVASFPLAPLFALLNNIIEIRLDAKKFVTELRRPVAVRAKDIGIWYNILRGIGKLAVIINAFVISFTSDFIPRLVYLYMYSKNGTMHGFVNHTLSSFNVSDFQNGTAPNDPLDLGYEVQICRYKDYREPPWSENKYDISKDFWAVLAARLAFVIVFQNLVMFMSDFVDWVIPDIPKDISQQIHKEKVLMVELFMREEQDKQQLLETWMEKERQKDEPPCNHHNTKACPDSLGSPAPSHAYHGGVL
# UniProt Q02763, sequence (whole entry, looked up): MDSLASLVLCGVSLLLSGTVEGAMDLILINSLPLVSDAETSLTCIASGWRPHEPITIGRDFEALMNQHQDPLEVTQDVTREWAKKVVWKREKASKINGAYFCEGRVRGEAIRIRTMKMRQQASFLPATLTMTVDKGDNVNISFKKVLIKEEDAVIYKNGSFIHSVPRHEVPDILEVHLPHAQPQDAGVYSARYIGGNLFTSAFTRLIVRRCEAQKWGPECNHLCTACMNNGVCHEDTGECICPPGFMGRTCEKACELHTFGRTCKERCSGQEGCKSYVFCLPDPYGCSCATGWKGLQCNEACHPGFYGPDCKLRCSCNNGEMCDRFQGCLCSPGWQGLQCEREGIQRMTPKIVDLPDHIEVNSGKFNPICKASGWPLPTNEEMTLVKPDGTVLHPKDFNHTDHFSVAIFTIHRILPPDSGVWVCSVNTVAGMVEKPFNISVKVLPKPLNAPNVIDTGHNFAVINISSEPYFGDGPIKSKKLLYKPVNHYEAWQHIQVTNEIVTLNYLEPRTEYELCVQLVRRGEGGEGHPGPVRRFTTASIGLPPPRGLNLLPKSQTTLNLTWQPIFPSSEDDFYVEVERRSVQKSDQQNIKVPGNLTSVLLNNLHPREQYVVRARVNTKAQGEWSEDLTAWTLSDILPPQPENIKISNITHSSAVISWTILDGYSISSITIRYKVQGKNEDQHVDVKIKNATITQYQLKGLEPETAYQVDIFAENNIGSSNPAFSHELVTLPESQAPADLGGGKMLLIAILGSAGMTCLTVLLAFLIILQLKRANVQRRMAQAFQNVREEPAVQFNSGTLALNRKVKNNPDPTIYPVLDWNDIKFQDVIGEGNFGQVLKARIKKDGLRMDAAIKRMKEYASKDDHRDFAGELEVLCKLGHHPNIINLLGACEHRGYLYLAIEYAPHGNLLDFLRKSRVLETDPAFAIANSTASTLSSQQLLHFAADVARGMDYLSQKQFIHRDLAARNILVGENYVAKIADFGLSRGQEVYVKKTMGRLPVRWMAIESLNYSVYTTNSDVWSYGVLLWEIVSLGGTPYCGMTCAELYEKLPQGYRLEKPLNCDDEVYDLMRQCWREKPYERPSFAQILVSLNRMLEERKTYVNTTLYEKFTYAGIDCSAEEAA

# Study 1
# Cell line: normal-adjacent organoid sample G
# Method: CellTiter-Glo
# Tested at: 1 µM
# Notes: replicate mean
# Baseline: DMSO
Compound,viability [%]
O=C(NCc1ncc(C(F)(F)F)cc1Cl)c1ccc2c(c1)C1(CCS(=O)(=O)CC1)[C@@H](C1CC1)N2S(=O)(=O)c1ccc(F)cc1,95.2
CCCCN(CCCC)C(=O)CN1C[C@@H](c2cc(OC)c3c(c2)OCO3)[C@H](C(=O)O)[C@H]1CC(C)(C)CCC,110
CC1=C(C#N)C(c2ccc3c(c2)c(NC(=O)c2ccccc2C)nn3C)C(C#N)=C(C)N1,94.1
C[C@H](c1ccnc(Nc2nc3ccc(-c4cc(N(C)C)ncn4)cc3[nH]2)c1)N1CCN(C(=O)CC(F)(F)F)CC1,101
C[C@@]1(Cc2ccc(C#N)cc2)C(=O)N(c2cc(Cl)cc(Cl)c2)c2ncc(C(=O)NC3(c4nc(C5CCC5)no4)CC3)n21,121
C[C@H](c1ccc(F)cc1)N(Cc1ccc(Cl)c(C(=O)O)c1)C(=O)c1cnc2ccccc2c1,109
CN1CCN(C(=O)C(C)(C)c2ccc(C(=O)Nc3cn4cc(-c5cc(C(C)(C)C)cc(C(C)(C)C)c5)ccc4n3)cc2)CC1,107
C[C@H](NC(=O)c1cnc2n1[C@](C)(Cc1ccc(C#N)cc1)C(=O)N2c1cc(Cl)c(F)c(Cl)c1)C(=O)NC1(c2ccccn2)CC1,116

# Study 2
# Organism: Sarcocystis neurona
# Effect on: parasite growth
# Tested at: 10 µM
# Time: 96 h
# Notes: secondary screen
Compound,inhibition
CC(C)NCC(O)COc1ccc(COCCOC(C)C)cc1 (stereo not drawn),-19.4%
COc1c2occc2cc2ccc(=O)oc12,-18.5%
C[C@]12CCC(=O)C=C1CC[C@@H]1[C@@H]2[C@@H](O)C[C@@]2(C)[C@H]1CC[C@]2(O)C(=O)CO,-15%
Cc1nnc(SCC2=C(C(=O)O)N3C(=O)[C@@H](NC(=O)Cn4cnnn4)[C@H]3SC2)s1,-19.9%
CN(C)CCC[C@@]1(c2ccc(F)cc2)OCc2cc(C#N)ccc21,-27.6%
C[C@](N)(Cc1ccc(O)c(O)c1)C(=O)O,-16.6%
CCN(CC)CC1CCCCN1CC(=O)N1c2ccccc2C(=O)Nc2cccnc21 (stereo not drawn),-21.5%
COc1ccccc1OCC(O)COC(N)=O (stereo not drawn),-17.2%

# Study 3
# SMILES: CC(C)S(=O)(=O)c1ccc2nccc(Nc3ccc4scnc4c3)c2c1
# Cell line: L929
# Effect on: caspase activity
# Method: Ac-DEVD-pNA absorbance
# Direction: higher = more activity
setting,caspase-3 activity
"5 µM, 0 h",0.019 a.u. and 0.005 a.u. and 0.018 a.u. and 0.007 a.u.
"10 µM, 1 h",0.035 a.u. and 0.016 a.u. and 0.079 a.u. and 0.072 a.u.
"5 µM, 4 h",0.104 a.u. and 0.099 a.u. and 0.064 a.u. and 0.097 a.u.

# Other studies, line by line
# Action: inhibitor
SMILES,target,assay,setting,how to read,endpoint,result
C=CCc1ccc(O)c(-c2cc(CC=C)ccc2O)c1,"Anoctamin-1 (ANO1, Homo sapiens, UniProt Q5XXA6, del476-501)","chloride current, whole-cell voltage clamp","wild type at 100 mV, together with: 3 µM honokiol",baseline: with over without honokiol,potency fold increase,1.16
COc1ccc2c(c[n+](C)c3c4cc5c(cc4ccc23)OCO5)c1OC,"TEK (Homo sapiens, UniProt Q02763)",enzyme activity,0.5 µM,baseline: control,remaining activity,97.2%

# Excerpt of the above (study 2):
Compound,inhibition
CN(C)CCC[C@@]1(c2ccc(F)cc2)OCc2cc(C#N)ccc21,-27.6%
C[C@](N)(Cc1ccc(O)c(O)c1)C(=O)O,-16.6%
CCN(CC)CC1CCCCN1CC(=O)N1c2ccccc2C(=O)Nc2cccnc21 (stereo not drawn),-21.5%
